Assay results collected from several papers.
Lines come from different studies, so protocols differ. Numbers after ± are the reported error.

| SMILES | test | test system | conditions | AUC(0-inf) |
| --- | --- | --- | --- | --- |
| O=C(O)CCC(=O)O.[2H]C([2H])([2H])Oc1cc(C)c2[nH]ccc2c1CN1CC[C@@H](C2CC2)C[C@H]1c1ccc(C(=O)O)cc1 |  | healthy humans, fasted, plasma | oral, 200 mg, single dose | 130000 ng·h/mL |
| Cc1cc(C)c(CNC(=O)c2cc(Cl)c3c(c2C)O[C@@](C)([C@H]2CC[C@H](N(C)C)CC2)O3)c(=O)[nH]1 | geometric LS mean | healthy male humans, plasma | oral, 25 mg, alone, itraconazole DDI study reference | 760 ng·h/mL |
| COc1cc(C(=O)NC2CCN(C)CC2)c(F)cc1Nc1ncc(C(F)(F)F)c(Oc2cccc3c2C(=O)N(C)C3)n1 |  | human, Taiwanese, plasma | oral, 200 mg single dose, geometric mean | 24.7 µM·h |
| CNC(=O)c1ccc(-c2cnc3ncc(Cc4ccc5ncccc5c4)n3n2)cc1F |  | human mild hepatic impairment | oral, 200 mg single dose, covariate-adjusted geometric mean | 5750 ng·h/mL |
| N[C@](CO)(CCc1ccc(Sc2cccc(OCc3ccccc3)c2)cc1Cl)COP(=O)(O)O |  | human, blood | 3 mg MOC, together with: cyclosporin 100 mg b.i.d. | 178 ng·h/mL |
| C[C@H]1C[C@@H](N2C(=N)N[C@](C)(c3cccc(NC(=O)c4cccc(C#N)c4)c3Cl)CC2=O)CCO1 |  | human | oral, 50 mg | 27100 ng·h/mL |
| CC(C)(C)[C@@H]1NC(=O)O[C@@H]2CCC[C@H]2OC/C=C/C(F)(F)c2nc3ccccc3nc2O[C@@H]2C[C@@H](C(=O)N[C@]3(C(=O)NS(=O)(=O)C4(C)CC4)C[C@H]3C(F)F)N(C2)C1=O |  | healthy human subjects, plasma | oral, dose not given, single dose alone | 3940 ng·h/mL |
| O=C(/C=C/CN1CCCCC1)Nc1cc2c(Nc3ccc(F)c(Cl)c3)ncnc2cc1O |  | human, plasma | oral, 30 mg | 331 ng·h/mL |
| [H]/N=C(/N)c1ccc(NCc2nc3cc(C(=O)N(CCC(=O)O)c4ccccn4)ccc3n2C)cc1 |  | healthy human subjects, plasma | oral, 150 mg dabigatran etexilate, geometric mean, together with: fruquintinib 5 mg | 924 ng·h/mL |
| Cn1cc(-c2ccc(S(=O)(=O)[C@@H]3C[C@@H](C(=O)NC4(C#N)CC4)N(C(=O)C4(C(F)(F)F)CC4)C3)c(C(F)(F)F)c2)cn1 | noncompartmental | human, both sexes, plasma | oral, 100 mg once daily, day 1, with food, single dose | 12500 ng·h/mL |
| Cn1cncc1[C@@](N)(c1ccc(Cl)cc1)c1ccc2c(c1)c(-c1cccc(Cl)c1)cc(=O)n2C |  | human, without dose-limiting toxicity, plasma | oral, dose not given, median | 5360 ng·h/mL |
| Cc1[nH]c(/C=C2\C(=O)Nc3ccc(F)cc32)c(C)c1C(=O)N[C@H]1CCN(C(=O)N(C)C)C1 |  | human patients, plasma | oral, 150 mg single dose, together with: everolimus 5 mg | 4650 ± 2980 ng·h/mL |
| NC[C@@]1(CC(=O)O)[C@@H]2CC[C@H]3C[C@@H]2[C@@H]1C3 |  | human, normal renal function, plasma | oral, 20 mg single dose, geometric mean | 1790 ng·h/mL |
| Cc1ccc(C(=O)N(CCCN)C(c2nc3snc(C)c3c(=O)n2Cc2ccccc2)C(C)C)cc1 (stereo not drawn) |  | human | intravenous, all doses pooled, course day 3 following induction, geometric mean | 860 ng·h/mL |
| C=CC(=O)NC1CCN(c2ncc3ncnc(Nc4ccc(Oc5ccc6c(c5)ncn6C)c(C)c4)c3n2)CC1 |  | human, male, plasma | oral, 30 mg, fasted, adjusted geometric mean | 5.92 µM·h |
| CN(CC#N)C(=O)C[C@H](Nc1nc2ccccc2[nH]1)c1cccc(C(F)(F)F)c1 |  | human | intravenous infusion, 2 mg/kg, 10 mg/mL formulation | 16100 ± 8600 ng·h/mL |
| Cn1nnc2c(C(N)=O)ncn2c1=O |  | human patients, plasma | oral, 55 mg/m2, day 5, dose level DL6, median, together with: talazoparib 600 µg/m2 | 12300 ng·h/mL |
| CC1=C(c2cccc(O)c2)[C@H](c2ccc(OCCN3CC(CF)C3)cc2)Oc2ccc(O)cc21 |  | human, plasma | oral, 1000 mg single dose, geometric mean | 2270 ng·h/mL |

| SMILES | test | test system | conditions | AUC(0-inf) |
| --- | --- | --- | --- | --- |
| Cn1cncc1[C@@](N)(c1ccc(Cl)cc1)c1ccc2c(c1)c(-c1cccc(Cl)c1)cc(=O)n2C |  | healthy human subjects, plasma | oral, 100 mg, fasted | 1050 ng·h/mL |
| CN(C)C(=O)c1cc2cnc(Nc3ccc(N4CCNCC4)cn3)nc2n1C1CCCC1 |  | human, end-stage renal disease, plasma | oral, 400 mg, single dose, geometric mean | 13600 ng·h/mL |
| CN(C(=O)C(C)(C)c1cc(C(F)(F)F)cc(C(F)(F)F)c1)c1cnc(N2C[C@H]3COCCN3C[C@H]2CO)cc1-c1ccc(F)cc1[14CH3] | LC-MS/MS | human, plasma | oral, 120 mg | 6620 ng·h/mL |
| Cc1cc(Nc2cc3ncccc3c(N[C@@H]3C[C@H]4CC[C@@H](C3)N4CCC#N)n2)n[nH]1 |  | human, plasma | 1000 mg single dose, mean | 168 ng·h/mL |
| N[C@@H]1c2cccnc2[C@H](OC(=O)N2CCC(n3c(=O)[nH]c4ncccc43)CC2)CC[C@H]1c1cccc(F)c1F |  | human, plasma | oral, 75 mg single dose, alone, geometric mean, rifampin DDI study | 4960 ng·h/mL |
| C[C@@H](Oc1ccc(S(C)(=O)=O)cc1C(=O)N1C[C@@H]2C[C@]2(c2cc(C(F)(F)F)on2)C1)C(F)(F)F |  | healthy young humans, plasma | oral, 10 mg single dose | 3.8 µM·h |
| CC[C@H](Nc1ncnc2[nH]cnc12)c1oc2ccccc2c(=O)c1-c1cccc(F)c1 |  | human patients, plasma | oral, 400 mg twice daily, together with: romidepsin 12 mg/m2 | 8050 ± 7280 ng·h/mL |
| NC(=O)c1[nH]cnc1N |  | human patients, plasma | IV infusion over 1 h, 1000 mg/m^2 DTIC, cycle 2 day 1, staggered with co-drug | 29400 ng·h/mL |
| C#C[C@]1(CO)O[C@@H](n2cnc3c(N)nc(F)nc32)C[C@@H]1O |  | human, plasma | oral, 100 mg, single dose, geometric mean | 11.7 µM·h |
| C=CC(=O)N(C)CCOc1c(N)ncnc1-c1cc(F)cc(NC(=O)c2ccc(C3CC3)cc2F)c1C |  | human, fasted, whole blood | oral, 60 mg single dose, food effect study, mean | 201 ng·h/mL |
| CCN1CCN(Cc2ccc(Nc3ncc(F)c(-c4cc(F)c5nc(C)n(C(C)C)c5c4)n3)nc2)CC1 |  | fasted healthy human subjects, plasma | oral, 150 mg, 3 × 50 mg capsule | 3130 ng·h/mL |
| CN1C(=O)[C@@H](NC(=O)c2nnc(Cc3ccccc3)[nH]2)COc2cccnc21 |  | healthy human, fasted, plasma | oral, 100 mg single dose, geometric mean | 17000 ng·h/mL |
| CC(=O)c1cc(C(=O)N[C@@H](C)Cn2ccc(-c3ccc(C#N)c(Cl)c3)n2)[nH]n1 |  | healthy male human, plasma | intravenous infusion, 100 µg 14C-labelled, 15 min infusion, microtracer, geometric mean | 20400 h·pg eq/mL |
| C[C@H]1CN(C(=O)CC#N)[C@]12CCN(c1ncnc3[nH]ccc13)C2 |  | healthy human, plasma | oral, 6 mg single, median | 215 ng·h/mL |
| Cc1cc(C)c(CNC(=O)c2cc(Cl)c3c(c2C)O[C@@](C)([C@H]2CC[C@H](N(C)C)CC2)O3)c(=O)[nH]1 |  | human, plasma | oral, 200 mg [14C] single dose | 14200 ng·h/mL |
| CC(C)[C@@H]1CC[C@@H](C)C[C@H]1OC(=O)O[C@@H](C)OC(=O)[C@H]1[C@@H]2C[C@H](F)[C@@](N)(C(=O)O)[C@@H]21 |  | human, plasma | oral, 20 mg single dose, fasted | 86.9 ng·h/mL |
| CCNCCCNC/C=C\CNCCCNCC | LC-MS/MS | human cancer patients, plasma | intravenous infusion 60 min, 100 mg, median, cycle 1 | 304 ng·h/mL |
| O=C(c1nc2n(n1)[C@H](c1ccccc1)C[C@@H]2F)C1CC1 | geometric LS mean | human, high-fat meal, plasma | oral, 75 mg single dose | 13000 ng·h/mL |

A few entries again:
| SMILES | test | test system | conditions | AUC(0-inf) |
| --- | --- | --- | --- | --- |
| CCNCCCNC/C=C\CNCCCNCC | LC-MS/MS | human cancer patients, plasma | intravenous infusion 60 min, 100 mg, median, cycle 1 | 304 ng·h/mL |
| O=C(c1nc2n(n1)[C@H](c1ccccc1)C[C@@H]2F)C1CC1 | geometric LS mean | human, high-fat meal, plasma | oral, 75 mg single dose | 13000 ng·h/mL |
| Cc1ccc(C(=O)N(CCCN)C(c2nc3snc(C)c3c(=O)n2Cc2ccccc2)C(C)C)cc1 (stereo not drawn) |  | human | intravenous, all doses pooled, course day 3 following induction, geometric mean | 860 ng·h/mL |
| C=CC(=O)N(C)CCOc1c(N)ncnc1-c1cc(F)cc(NC(=O)c2ccc(C3CC3)cc2F)c1C |  | human, fasted, whole blood | oral, 60 mg single dose, food effect study, mean | 201 ng·h/mL |
